Published values of several laboratories.
Protocols differ between the studies behind these lines. Several values in a cell are separate wells, animals, samples, runs or records. ± marks the error that the study gave.

Sequences of proteins named here, by UniProt entry; tags and fusion partners are left off.
UniProt Q16539, whole entry: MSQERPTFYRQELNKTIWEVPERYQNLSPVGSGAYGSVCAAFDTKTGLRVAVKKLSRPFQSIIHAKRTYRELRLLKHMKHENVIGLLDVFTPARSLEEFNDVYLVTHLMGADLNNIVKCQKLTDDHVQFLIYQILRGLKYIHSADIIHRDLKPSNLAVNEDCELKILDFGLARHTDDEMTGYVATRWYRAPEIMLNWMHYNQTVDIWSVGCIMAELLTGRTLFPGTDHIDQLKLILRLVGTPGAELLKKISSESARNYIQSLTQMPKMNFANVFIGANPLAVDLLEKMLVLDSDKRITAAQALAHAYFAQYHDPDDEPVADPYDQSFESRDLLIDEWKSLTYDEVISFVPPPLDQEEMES

Compound	target or system	assay	test system	setting	scale	endpoint	result
CC(C)CC(NC(=O)C(Cc1ccccc1)NC(=O)c1cnc(C(=O)NC(Cc2ccccc2)C(=O)NC(CC(C)C)B(O)O)cn1)B(O)O (stereo not drawn)	proteasome (human)	trypsin-like activity, inhibitor, Proteasome-Glo	U-266	24 h		IC50	> 18 nM
Cc1c(Cn2c(C)nc3c(C(=O)O)cc(N4CCOCC4)cc32)cccc1C(F)(F)F	C4-2B enzalutamide-resistant	cell growth, WST-8		3 days		EC50	38300 nM
C=C(C)C(=O)Nc1ccc(-c2c(-c3ccc(Oc4nccc(C)n4)c(F)c3)c3c(N)ncnc3n2C)cc1	MFM-223	ubiquitin pulldown (TUBE1)		concentration not given, 6 h, added: inavolisib		p110α ubiquitination	inhibited
CC/C=C\C/C=C\CCC/C=C/C=C/C=C\CCCC(=O)O	HL-60	flow cytometry		12.5 µM, 24 h		G1 phase cells	46.5%
CC(=O)NCCCC[C@H](NC(=O)[C@H](CCCNC(=N)N)NC(=O)[C@H](C)NC(=O)[C@@H](NC(=O)[C@H](CCC(N)=O)NC(=O)[C@H](CCCCN)NC(=O)[C@@H](NC(=O)[C@H](CCCNC(=N)N)NC(=O)[C@H](C)N)[C@@H](C)O)[C@@H](C)O)C(=O)N[C@@H](CO)C(=O)N[C@H](C(=O)NCC(=O)O)[C@@H](C)O	human MORF PHD1/2 D289A	binding, NMR titration		298 K		interaction	inhibited
CCOC(=O)c1c(-c2ccc(Cl)cc2Cl)n(-c2nc(-c3ccc(Cl)cc3)c3c(NC(=O)c4ccccc4)nnc-3[nH]2)[nH]c1=O	A498	SRB				GI50	1050 nM
CC(C)C[C@H](NC(=O)[C@H](C)NC(=O)[C@H](CCCNC(=N)N)NC(=O)[C@H](CCCNC(=N)N)NC(=O)[C@H](CCCNC(=N)N)NC(=O)[C@H](C)NC(=O)[C@H](CC(C)C)NC(=O)[C@H](CCCNC(=N)N)NC(=O)[C@H](CO)NC(=O)[C@H](CCCCN)NC(=O)[C@H](CO)NC(=O)Cn1cc(COC(=O)[C@]2(C)C=C(C(=O)OC(C)(C)C)C(=O)CC2)nn1)C(=O)O	MAPK14 (Homo sapiens, UniProt Q16539)	enzyme activity, inhibitor, D-SENSOR kinase		2.469 µM, unit not given	baseline: untreated	remaining activity	0.0775 and 0.101 and 0.0951
N#Cc1c(-c2ccc(Cl)cc2Cl)n(-c2nc(-c3ccc(Cl)cc3)c3c(NC(=O)c4ccccc4)nnc-3[nH]2)[nH]c1=O	SF-295	SRB				GI50	3880 nM
CN(C)CCNC(=O)c1cc([N+](=O)[O-])cc2ccc(-c3ccccc3)nc12	MDA-MB-468	cytotoxicity, MTT		96 h		IC50	2800 ± 1100 nM

Excerpt of the above:
Compound	target or system	assay	test system	setting	scale	endpoint	result
CCOC(=O)c1c(-c2ccc(Cl)cc2Cl)n(-c2nc(-c3ccc(Cl)cc3)c3c(NC(=O)c4ccccc4)nnc-3[nH]2)[nH]c1=O	A498	SRB				GI50	1050 nM
